Published values pooled from the literature.
Lines come from different studies, so protocols differ.

| SMILES | assay | test system | conditions | quantity | result |
| --- | --- | --- | --- | --- | --- |
| Cn1cc(-c2nc(N[C@@H]3CCCC[C@@H]3N)c(F)c3c2C(=O)NC3)cn1 |  | relapsed/refractory AML patients | oral, 80 mg twice daily, phase Ib trial | patients with subdural haematoma | 17% |
| COc1cc2c(Oc3ccc4[nH]c(C)cc4c3F)ccnc2cc1OCC1(N)CC1 |  | paediatric refractory sarcoma patients | dose not given | patients with grade 3 ALT elevation | 0% |
| C[C@@H]1OC(=O)NN=C1c1ccc(-c2ccc(F)cc2)c(C(F)(F)F)c1 |  | patients, phase I trial | oral, dose not given, all arms, any grade TEAE | patients with muscle spasms | 40% |
| O=C1Nc2cc3[nH]nc(-c4ccncc4)c3cc2CN1Cc1ccccc1 | refers to: Vomiting | patients with advanced solid tumours | intravenous, dose not given, all schedules | patients with TEAE | 35% |
| CN1CC[C@@H](c2c(O)cc(O)c3c(=O)cc(-c4ccc(C(F)(F)F)cc4Cl)oc23)[C@@H]1CO | refers to: Hypotension | B-cell malignancies or AML | oral, 50 mg, continuous dosing | patients with adverse event | 12.5% |
| Nc1nc2cc(-c3ccc4ncc(C(=O)N5CCOCC5)n4c3)ccc2o1 | refers to: Constipation | advanced solid tumour patients | dose not given | patients with adverse event | 0% |
| C=CC(=O)N1CC[C@H](n2nc(C#Cc3cc(OC)cc(OC)c3)c3c(N)ncnc32)C1 |  | hyperphosphataemia patients | oral, once daily, grade ≥3, sevelamer users | patients with ADR | 9.1% |
| Cc1cc(OCCOCCC(F)(F)P(=O)(O)O)ccc1CCc1cnc2c(N)nc3cc(CCC(=O)O)ccc3c2c1 | refers to: chills | adults with advanced solid tumours | dose not given, by treatment group, all grades | patients with non-serious AE | 4.8% |
| CO[C@H]1C[C@@H]2CC[C@@H](C)[C@@](O)(O2)C(=O)C(=O)N2CCCC[C@H]2C(=O)O[C@H]([C@H](C)C[C@@H]2CC[C@@H](OC(=O)NCCOCCOCCOCCOCCOCCOCCOCCOCCC(=O)N3CCc4cc(Cn5nc(-c6ccc7oc(N)nc7c6)c6c(N)ncnc65)ccc4C3)[C@H](OC)C2)C[C@@H](O)[C@H](C)/C=C(\C)[C@@H](O)[C@@H](OC)C(=O)[C@H](C)C[C@H](C)/C=C/C=C/C=C/1C | refers to: treatment-related AEs | patients with advanced solid tumours | intravenous, dose not given, any grade, all doses | patients with AE | 0% |
| COc1c(C)cnc(Cn2cc(C#CCCOP(=O)(O)O)c3c(Cl)nc(N)nc32)c1C |  | patients, advanced solid tumours | dose not given, all doses | patients with dizziness | 22% |
| [O-][S+]1CCc2nc(N3CCC(c4ncc(Cl)cn4)CC3)nc(NC3(CO)CCC3)c21 (centres unmarked) | adverse event | idiopathic pulmonary fibrosis patients | 18 mg twice daily | patients with respiratory tract infection | 0% |
| CCNCCCNC/C=C\CNCCCNCC |  | advanced refractory solid tumour patients | intravenous, dose not given, cycle 1 | patients with TEAEs | 100% |
| N[C@@H]1c2ccccc2OC12CCN(c1cnc3c(N4CCCc5ncccc54)n[nH]c3n1)CC2 |  | advanced solid tumour patients | oral, 150 mg once daily | patients with any TEAE | 100% |
| COc1ccc(-c2c(-c3ccc(C#N)c(F)c3)nc(N3CCC(N)CC3)n(C)c2=O)cc1F | refers to: conjunctival hemorrhage | neuroendocrine neoplasm patients | oral, 60 mg, dose expansion | patients with TRAE any grade | 0% |
| CC(=O)c1c(C)c2cnc(Nc3ccc(C4CCN(CCS(C)(=O)=O)CC4)cn3)nc2n(C2CCCC2)c1=O |  | HR+/HER2- advanced breast cancer patients | oral, dose not given, grade 3/4,, total | patients with ALT increased | 1.2% |
| C=CCNc1c(O)cc2c(O)c1C[C@@H](C)C[C@H](OC)[C@H](O)[C@@H](C)/C=C(\C)[C@H](OC(N)=O)[C@@H](OC)/C=C\C=C(/C)C(=O)N2 |  | unresectable or metastatic sarcoma | intravenous, 90 mg/m^2, grade 3-4 lab change | patients with AST increase | 0% |
| COc1nnc2ccc(N3CCC(c4ccc(OCCN5CCN(C)C(=O)[C@H]5C)cc4)CC3)nn12 | refers to: thrombocytopenia | patients with solid tumours or lymphoma | oral, dose not given, all grades, treatment-related | patients with adverse event | 29.4% |
